# Measured values pooled from the literature.
# Every numbered part comes from another study and shows a few of its results, in no order.

# Set 1
# Target: Histone acetyltransferase KAT6A, both winged helices, GST fusion (KAT6A, Homo sapiens, UniProt Q92794, residues 1-181)
# Method: protein binding microarray
# Form: double-stranded DNA, one strand shown
# Matrix: in vitro
# Tested at: not given
# Setting: 8-mer, flanks averaged, mean of 2 arrays, mostly near background
# Baseline: not given
# Direction: higher = stronger binding
# Residues (chain): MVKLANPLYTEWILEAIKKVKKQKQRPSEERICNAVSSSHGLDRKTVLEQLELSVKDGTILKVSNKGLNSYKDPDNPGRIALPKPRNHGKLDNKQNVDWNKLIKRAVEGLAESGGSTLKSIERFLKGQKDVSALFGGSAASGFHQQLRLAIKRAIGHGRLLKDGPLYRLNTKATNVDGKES
Oligonucleotide,E-score
ATCGTACA,-0.00051
AAAACCGG,0.188
TACACATA,-0.099
CTATGGAC,-0.00661
GAGTCCCA,-0.126
AGATGCCT,-0.246
GATCGTGC,0.0406
CTTGACTC,-0.0868
GATTATCC,0.0333
ACTCACCA,-0.22
AGAATTTA,-0.0969
CTGCGACC,-0.00269
ATGGCCTA,0.0427
CCGTCCCG,0.305
AAGAGTGC,-0.107
ACCCAGAT,-0.238
CGAGCCCA,-0.0864
CACAAAGG,-0.159
GTTCACCA,0.126
AGCGACTG,-0.0279
ATAGACAA,-0.0775
ATAAGCAT,-0.0994
ACAGCAGA,-0.0491
AAAAAAAG,-0.0577
CGAGGGGC,-0.0935

# Set 2
# Target: Ras GTPase-activating protein-binding protein 1, C-terminal RGG region (G3BP1, Homo sapiens, UniProt Q13283)
# UniProt Q13283, sequence (whole entry, looked up): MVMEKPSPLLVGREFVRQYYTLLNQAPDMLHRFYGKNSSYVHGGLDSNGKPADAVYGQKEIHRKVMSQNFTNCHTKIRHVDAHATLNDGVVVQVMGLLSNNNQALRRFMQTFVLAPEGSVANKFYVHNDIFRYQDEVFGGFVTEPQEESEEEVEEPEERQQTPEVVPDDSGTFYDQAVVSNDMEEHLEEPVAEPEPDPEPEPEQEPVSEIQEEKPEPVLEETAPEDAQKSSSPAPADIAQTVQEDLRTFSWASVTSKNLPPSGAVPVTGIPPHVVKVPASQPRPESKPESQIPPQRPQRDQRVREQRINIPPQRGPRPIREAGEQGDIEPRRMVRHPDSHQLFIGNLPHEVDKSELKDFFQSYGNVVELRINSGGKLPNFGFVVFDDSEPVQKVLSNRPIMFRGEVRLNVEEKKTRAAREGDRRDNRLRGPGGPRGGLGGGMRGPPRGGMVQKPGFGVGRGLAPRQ
# Method: RNA Bind-n-Seq
# Form: RNA
# Matrix: in vitro
# Tested at: 1 µM
# Setting: whole 134-nt RNA, ends assumed
# With: 150 mM KCl
# Baseline: input library
# Direction: higher = stronger binding
Oligonucleotide,log2 enrichment
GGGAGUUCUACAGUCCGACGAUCUAGCUAAACUAAUGUCAACUUAUUUCCUUUUUUCCUUUAGCCACCAUCAAAGAACAGACGAGAGAGAACAGAACUGAAGCCUGAUUUCUUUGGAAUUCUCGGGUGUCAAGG,-1.54
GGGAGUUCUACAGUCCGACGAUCGUCCUGUGCUACACAUCGUAUGUACCGAAUCAAAUUUUUAAAUUUAAACCCCCCCAAAAAAGUAUUAUGUUACGCCGUUCGGAUCUGCACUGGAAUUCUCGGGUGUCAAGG,-0.619
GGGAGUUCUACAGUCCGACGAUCCUCAAGUCCUGUGCUACACAUCGUAUGUACCGAAUCGGGAAAGGAAAGGAAAGGAAAGUAUUAUGUUACGCCGUUCGGAUCUGCACUUCCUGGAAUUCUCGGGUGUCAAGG,-1.51
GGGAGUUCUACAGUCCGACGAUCUCCUGUGCUACACAUCGUAUGUACCGAAUCGGGGAAAAAGGGGAAAAAAAGGGGAGGGGAAAGUAUUAUGUUACGCCGUUCGGAUCUGCAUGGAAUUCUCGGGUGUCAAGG,1.58
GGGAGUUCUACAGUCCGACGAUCAAGUCCUGUGCUACACAUCGUAUGUACCGAAUCAAAUUUUUAAACCCAAAUUUAAAAAAGUAUUAUGUUACGCCGUUCGGAUCUGCACUUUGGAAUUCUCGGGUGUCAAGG,-1.46
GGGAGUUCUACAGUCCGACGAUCUUCAGUAAAAUGGCAGAAGAGAAACUGACCCACAAAAUGGAAGCUAAUAAAGAGAACCGAGAGGCACAAAUGGCUGCCAAACUGGAACGUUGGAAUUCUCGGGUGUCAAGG,-1.95
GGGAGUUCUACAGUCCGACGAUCUGCGUGCUUGUGUCCUGGAGCUGGAAGAGCGGCUGAGCACGCAGGAGGGCUUGGUGCAAGAGCUUCAGAAAAAACAGGUGGAAUUGCAGGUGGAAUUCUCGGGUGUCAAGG,-1.19
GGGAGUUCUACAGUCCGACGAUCUAACUUUAGAGGAGGAUCUGAUGGAUAUGGCAGUGGACGUGGAUUUGGGGAUGGCUAUAAUGGGUAUGGAGGAGGACCCGGAGGUGGCAAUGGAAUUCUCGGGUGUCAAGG,-1.06
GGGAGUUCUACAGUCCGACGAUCCCUGUGCUACACAUCGUAUGUACCGAAUCGGGGAAAGGGGAAAAAAAGGGGUUUUUGGGGAAAGUAUUAUGUUACGCCGUUCGGAUCUGCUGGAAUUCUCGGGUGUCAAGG,0.75
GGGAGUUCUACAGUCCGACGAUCAGUCCUGUGCUACACAUCGUAUGUACCGAAUCAAAUUUAAACCCAAACCCCCCCAAAAAAGUAUUAUGUUACGCCGUUCGGAUCUGCACUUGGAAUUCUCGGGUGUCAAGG,-0.951
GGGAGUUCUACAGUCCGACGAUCCCUGUGCUACACAUCGUAUGUACCGAAUCAAAUUUUUUUAAAUUUUUAAAUUUUUUUAAAAAAGUAUUAUGUUACGCCGUUCGGAUCUGCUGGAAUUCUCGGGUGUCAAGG,-2.39
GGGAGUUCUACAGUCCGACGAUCGUCCUGUGCUACACAUCGUAUGUACCGAAUCGGGAAAAAGGGGAAAAAGGGGAAAAAGGAAAGUAUUAUGUUACGCCGUUCGGAUCUGCAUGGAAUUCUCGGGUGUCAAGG,-0.94
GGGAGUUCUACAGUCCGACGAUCUGGGAGGUGGAUUUUGUUUAUUUUUUUAGCUCAUUUCCAGGGGUGGGCAUUUUUUUUUAAUAUGUGUCAUGAAUAAAGUUGUUUUUGAAAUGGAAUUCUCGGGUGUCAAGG,3.36
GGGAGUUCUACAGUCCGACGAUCCCUGUGCUACACAUCGUAUGUACCGAAUCGGGGAGGGGUUUUUUUGGGGAAAAAAAGGGGAAAGUAUUAUGUUACGCCGUUCGGAUCUGCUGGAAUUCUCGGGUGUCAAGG,-0.0652

# Set 3
# Target: Centromere-binding protein 1, full length, His-tagged (CBF1, Saccharomyces cerevisiae, UniProt P17106, residues 1-351)
# UniProt P17106, sequence (whole entry, looked up): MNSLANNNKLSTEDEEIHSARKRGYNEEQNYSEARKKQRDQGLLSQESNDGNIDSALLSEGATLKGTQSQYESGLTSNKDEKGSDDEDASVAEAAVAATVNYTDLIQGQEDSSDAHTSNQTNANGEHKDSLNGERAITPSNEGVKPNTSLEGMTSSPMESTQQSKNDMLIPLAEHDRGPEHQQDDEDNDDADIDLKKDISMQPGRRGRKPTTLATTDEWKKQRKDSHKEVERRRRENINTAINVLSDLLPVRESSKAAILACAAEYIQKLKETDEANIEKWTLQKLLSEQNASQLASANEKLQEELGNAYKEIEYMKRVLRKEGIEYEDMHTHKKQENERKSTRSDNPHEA
# Method: competition protein-binding microarray
# Form: double-stranded DNA, one strand shown
# Matrix: in vitro
# Tested at: 2 µM
# Setting: whole 60-bp probe, lowest competitor level
# With: Pho4 competitor, 0.05 µM
# Direction: higher = stronger binding
Oligonucleotide,fluorescence intensity
AGGTTACCGCCATCTCACCTGCAGCTTGGATCCTGAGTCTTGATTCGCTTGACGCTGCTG,65.6 a.u.
CTAACGAAGGTTTGTCTTGTGGGTGACAAGCCAAGTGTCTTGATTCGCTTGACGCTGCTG,68.4 a.u.
CGTCCTAGCGATTGAGTTGTGGGTGCCATGAGGAAGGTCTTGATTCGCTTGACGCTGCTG,74.6 a.u.
GACACTTTTACATACGGCGTGCGATGCTGGTATCCTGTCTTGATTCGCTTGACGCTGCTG,72.6 a.u.
CCGTCGCCACAGAAGCGCGTGGACGCAGGATCGCGCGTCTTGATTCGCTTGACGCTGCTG,51.5 a.u.
CGTCTCGAGCATGAGCGTGTGCAACAGTTGCAACAAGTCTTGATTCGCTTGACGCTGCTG,89.9 a.u.
GAGCTCAAGGCGAGTCACGATGCAGAACTGGAACTTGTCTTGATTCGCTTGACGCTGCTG,150 a.u.
AGAGCTGCGGGCATGGACGTGCCGATTATTCCCGGGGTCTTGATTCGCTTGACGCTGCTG,69.6 a.u.
AACCCCCAAAGTTGTCATGTTAAGGAGGGCATTTTTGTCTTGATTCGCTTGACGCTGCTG,85.9 a.u.
CTAACGAAGGTTTGTAACGTGGGTGACAAGCCAAGTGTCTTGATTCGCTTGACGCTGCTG,89 a.u.
AAATTACTAAGTTGTCACTGGACTTACCCCGTATGAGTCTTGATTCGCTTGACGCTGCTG,102 a.u.
CTAACGAAGGTTTGTCACAAGACTTACAAGCCAAGTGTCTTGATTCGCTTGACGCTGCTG,112 a.u.
AGTTGCCACAGGAGTTGCGTGACGGGTTGATAAAGGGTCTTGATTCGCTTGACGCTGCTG,104 a.u.
GGTTTAACAGATCTGGACGTGATGGTTTTTTTTTTTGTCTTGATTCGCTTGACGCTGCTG,107 a.u.
CATACCCAACCTTGTGAAGTGGGTGAAGATATTTGTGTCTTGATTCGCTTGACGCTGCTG,74.9 a.u.
CATACCCAACCTTGGGTCGTGGGTGAAGATATTTGTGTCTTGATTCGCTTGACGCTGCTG,62.8 a.u.
AAATTACTAAGTTGCTCAGTGGGTGACGCCGTATGAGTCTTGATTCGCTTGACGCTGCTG,62.6 a.u.

# Set 4
# Target: RNA binding protein fox-1 homolog 2, RRM domain, GST-SBP tag (RBFOX2, Homo sapiens, UniProt O43251-10, residues 100-194)
# Method: RNA Bind-n-Seq
# Form: RNA
# Matrix: in vitro
# Tested at: 365 nM
# Setting: natural RNA segment, single round, ends assumed
# Baseline: no-protein control
# Direction: higher = stronger binding
# Residues (chain): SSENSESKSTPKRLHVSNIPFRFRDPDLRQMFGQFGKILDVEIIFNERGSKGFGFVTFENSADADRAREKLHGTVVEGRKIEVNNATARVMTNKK
Oligonucleotide,RBNS enrichment (R)
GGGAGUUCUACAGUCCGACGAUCUUCUCCUAUCUCCUAAAGUGUCGGGGAAAGUUACUGGCCUCUCUCAACAGGGCUCACUCUGAGCUCCACAUCCGCCUCCUUCAAGCAAAGACUUAAAAAGACUGCCCUUGUGGAAUUCUCGGGUGCCAA,0.17
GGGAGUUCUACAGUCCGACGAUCGAAUUCCCUUUUGUGCCAGAUGCCAGUACUGUCUGCCCAUUGGCUCCAGGGGCUGUAUGGGCAGAUUCAGUCUCCAGAGGGUAUUCAGAUCAUCUGCUUCUUUGAAGGAGUGGAAUUCUCGGGUGCCAA,0.227
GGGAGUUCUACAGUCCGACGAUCGUCCAGUUUUUCUUUUUCCCUCUCAUAUAUUUGUAACCUGGGUCCUAAACUGACUGAAGAGUUUGUCCUGACUUUAUUAAUUGCAGUCUCACAGAAUGCUCAUCAUUCUCUGGAAUUCUCGGGUGCCAA,0.516
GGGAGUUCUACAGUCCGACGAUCCUUUUGUGAAAUUCAGAAUUUUUCUUUUUAAUAUAUUUCUUCCAUGGAAGAGUUGUCAUCACUAAAACUUCAGUACUGAGAGUAACAUGACUCAGUAGCCACAGAAGCUAUGGAAUUCUCGGGUGCCAA,0.469
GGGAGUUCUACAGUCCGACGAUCUAUAGUGAAGAAGAGUCAAGCGUCAGAUAUAUUCUCCCAGUUGAUCCCAAUAUCUGCCCUAAGUGAUUUUUGAGAACAGGGUUUCAUGUAUCCCAGCCAGCCUGGGUCUCUGGAAUUCUCGGGUGCCAA,0.971
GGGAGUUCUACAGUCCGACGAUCGAUGCUGGUUUUUGCCUGAAGGCCCUGCAGCCUGCCCACAUCAGGUUAAACCCACAGCUUUUGUGUGUGGUUUGUUUUGUUGUGUUUUCUUUCUCUAUGUUCCAAAACCAUGGAAUUCUCGGGUGCCAA,2.18
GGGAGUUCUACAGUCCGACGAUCACUUUUCCAAAGUGCCUUAAAAGAAGGGAGACAGACUCAUUGAGUGUGUUGCUUCUUUCUCUCCUAAAGCAAACCUCUGCCUUUUCUCUAUGCUGUUCGUGUUGGGUUUUUGGAAUUCUCGGGUGCCAA,0.455
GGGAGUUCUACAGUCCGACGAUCGACAGCAUCAGGUGGGAAAGUGGAGUCCACCCUCAUGUUUCUGUAGGAUUCUCACCGUGGGGCUGGAAGAAAAGAGCAUCGACUUGAUUUCUCCAACCACUCAUCCCUCUUGGAAUUCUCGGGUGCCAA,0.459
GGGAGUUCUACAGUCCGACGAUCCUCCACCAGGACCAGGAUCCUGGGCCACAGGCUGGGAUGGUCCUUCCAAGAAAGGGUCAUUUCAGACGCAGCCCUGCUUGGGCUAUUCAAUCUUAGGGUGUCUAUCCACGUGGAAUUCUCGGGUGCCAA,0.246
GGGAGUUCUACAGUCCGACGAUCCCAACCAUAAAAUUAUCUUAUUGCUACUUCAUAACUGUAAUUUUGCUACUGUUAUAAAUCAUAAUGUAAAUCUCUGUGUUUUCUGGUAGUUUUAGGUAACCCCUGUGAGAUGGAAUUCUCGGGUGCCAA,0.468
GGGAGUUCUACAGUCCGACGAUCAUUCACAUUGCUGCUCACAAAACAGAACUCGGUGACUUUGUUUUGAUAUAGUUUUGUGGACCAUCUCAAAUUAAAACUAUUUUCUGUAAAAAAUCUAUAGCCAGGAGUUUUGGAAUUCUCGGGUGCCAA,0.641
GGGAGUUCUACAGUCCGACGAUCCGAGAGACUUGGUUGAACUUGGUUGGUCCUUGUCUGCACCCUCGACAAGACCACACUUUGGGACUUGGGAGCUGGGGCUGAAGUUGCUCUGUACCCAUGAACUCCCAGUUUGGAAUUCUCGGGUGCCAA,1.43
